Measurements gathered from unrelated publications.
A part holds a random share of what one study measured. Positions count from the first letter of the parent shown.

Series 1
Target: ABI1, truncated, D143A, DHFR fusion (Arabidopsis thaliana)
Method: DHFR PCA, deep sequencing
Medium: yeast
Notes: methotrexate growth selection, single substitutions
Together with: (+)-ABA 4.8 µM
Baseline: wild-type fitted maximum
Reading: higher = stronger binding
Starting sequence: PYL1, truncated, DHFR fusion (Arabidopsis thaliana); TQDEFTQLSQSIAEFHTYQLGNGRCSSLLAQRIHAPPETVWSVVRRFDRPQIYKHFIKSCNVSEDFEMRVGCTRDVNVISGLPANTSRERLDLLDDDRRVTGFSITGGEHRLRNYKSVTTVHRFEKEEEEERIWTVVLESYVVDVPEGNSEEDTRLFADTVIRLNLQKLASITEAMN
For `I33S`, “relative binding score” read -2.18%.
For `L91A`, “relative binding score” read 7.41%.
Under “relative binding score”, `A84N` is recorded as 7.93%.
`K168C` — result for “relative binding score”: 65.2%.
For `N149Y`, “relative binding score” read 5.41%.
`T101D`: “relative binding score” 5.01%.
Under “relative binding score”, `K126H` is recorded as 82.6%.
`H110E` — result for “relative binding score”: 10%.
`R49N`: “relative binding score” 59.1%.
`L20I`: “relative binding score” 72%.
Under “relative binding score”, `K58W` is recorded as 5.85%.
`I162N`: “relative binding score” 14.7%.
Under “relative binding score”, `T6Q` is recorded as 78.1%.
`E174A`: “relative binding score” 23.9%.
`L112R` — result for “relative binding score”: -6.95%.

Series 2
Target: RNA binding protein fox-1 homolog 2, RRM domain, GST-SBP tag (RBFOX2, Homo sapiens, UniProt O43251-10, residues 100-194)
Method: RNA Bind-n-Seq
Molecule type: RNA
Medium: in vitro
Tested at: 365 nM
Notes: natural RNA segment, single round, ends assumed
Baseline: no-protein control
Reading: higher = stronger binding
Target sequence (chain): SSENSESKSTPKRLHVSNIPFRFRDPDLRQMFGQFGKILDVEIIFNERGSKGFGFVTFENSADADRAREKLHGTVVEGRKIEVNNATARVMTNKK
`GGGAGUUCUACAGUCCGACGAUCUCUGUCUCCGUGCUCUCCUGCCUCCACCGCCUUGGUUUUGCUUCCUGCUGGAGGCAGGGCACCUGCUGCGACCCAGAUUCUUCUGCAGGAUGUGUCUGUCUUUGUCACGGUGGAAUUCUCGGGUGCCAA`: “RBNS enrichment (R)” 0.451.
`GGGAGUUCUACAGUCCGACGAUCUAACAUUGUGACUCUUACUCGUUUUUGUUGGUUAGCAGAGGUUCCUUUAUAGAGAAAGCCUUCCCUCAGCUCUUUUGUUACCUUGAGAUUUGCCAGUUUGGUGAAUACAGUGGAAUUCUCGGGUGCCAA`: “RBNS enrichment (R)” 0.54.
`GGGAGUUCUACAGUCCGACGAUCAGGCAACUCGUACCCAAAUUUCCAAGACACAAACAUGACCUAUCCAAGCGCAUUACCCACUUGUGGCCAAUCAGUGGCCAGGCCAACCUUGGCUAAAUGGAGCAGCGAAAUGGAAUUCUCGGGUGCCAA`: “RBNS enrichment (R)” 0.655.
`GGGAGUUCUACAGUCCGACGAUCAGUUGUUUCUUCCAAAGAACAAAGCCAGGUUAAUGACAUUCAAUUCUAAAUGAUACAUUGGAAUUGUGCCUUUUCUACCACACUGGAUUAAAUAAACUUGUCAAAAUAUGUGGAAUUCUCGGGUGCCAA`: “RBNS enrichment (R)” 0.334.
For `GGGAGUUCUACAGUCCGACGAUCUACCCUGCGCGCAUCUAUGUCUUGUUUGGAAUAUUGUCUCUUCAACCCCCUGUUCAUGUCCUUCUCACUCAUGAUCGAUGUCUUGUCUGUGCACUGUCUCUAACCCAAAUUGGAAUUCUCGGGUGCCAA`, “RBNS enrichment (R)” read 2.71.
`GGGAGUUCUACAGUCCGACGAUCAGGGCAAAAGUUUAGAAAUCCACAUACAUUGGUUCUUAGAUCUCUUAGGAAAUCCUGCACCGGUUUCUUCGCUAAUUCUUGAAACUGCUCAAGCUUCAUGUAGGGUCAGGUGGAAUUCUCGGGUGCCAA`: “RBNS enrichment (R)” 0.454.
Under “RBNS enrichment (R)”, `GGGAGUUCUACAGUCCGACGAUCUUGGCCCCAAGCCUGGGACUUGAGCCAUCGUAACUCACUAACAGGGAGAAUUAGCUAGUAGCAAUGUGCCUUGAUGAAGAUUUCCUGCAGGCAGCAAAACACCAAAUCACUGGAAUUCUCGGGUGCCAA` is recorded as 0.383.
`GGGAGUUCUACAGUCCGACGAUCAGUUAGGAGGUGCAGACACUUGCUCUCCUAUGUAGUUCUCAGAUGCGUAAAGCAGAACAGCCUCCCGAAUGAAGCGUUGCCAUUGAACUCACCAGUGAGUUAGCAGCACGUGGAAUUCUCGGGUGCCAA` — result for “RBNS enrichment (R)”: 0.187.
For `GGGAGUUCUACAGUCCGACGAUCCCAAUUAUGAGAUAAAAUUUAUACUUUUUACUUUUCUAAAUUAAACACAAGAAAGAAUGCAAAAACAAAAGUGAUUUUUUAAAAAUGAGGUUAAAUCGAUUUUGCAUCAGUGGAAUUCUCGGGUGCCAA`, “RBNS enrichment (R)” read 4.61.
`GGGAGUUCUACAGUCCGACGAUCUUCAAUACACUUUAGGUAGCCGAUUAUCUGAUUUAAGUGCAGACACACUUUUCUCACAUUGAGUUGUAUGCAGAAUGUAGCUUCAGAUGUAUUCAUUAUAGUUACAAUAUUGGAAUUCUCGGGUGCCAA`: “RBNS enrichment (R)” 0.684.
`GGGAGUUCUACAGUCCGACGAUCAUUACCUAGCAGGAGUCGUGGAAAGGAUGGCGUCUGAUCUGCACGAUGACACCACUGAAUGUUUAGGUGGGCUAGCAUUAGCGACCCUUGUUGGCCACUUUUCAGUCCUGUGGAAUUCUCGGGUGCCAA`: “RBNS enrichment (R)” 2.26.
Under “RBNS enrichment (R)”, `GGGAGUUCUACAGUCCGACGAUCCGAGUGAGUGAGUUGAGUUACCUGAACUCUGUAGCACUGGUUGUUCAUAGUGAUGAAGGACAGCACUGCAGACAUCUCCCUUGCCAUCUCUAGCCUGCUGUGGAAGGAAAUGGAAUUCUCGGGUGCCAA` is recorded as 3.42.

Series 3
Target: Sal-like protein 4, full length isoform B (SALL4, Homo sapiens, UniProt Q9UJQ4-2, residues 1-616)
Method: universal PBM
Molecule type: double-stranded DNA, one strand shown
Medium: in vitro
Tested at: not given
Notes: 8-mer, flanks averaged, mean of replicates
Reading: higher = stronger binding
`CACGCTCG` has an E-score of -0.239.
The E-score of `CGTCCTTC` is reported as 0.0205.
`CTTTTTCA` has an E-score of 0.208.
With `AACTCCCT` the E-score was -0.0114.
For `GGTTGTTA`, the E-score was 0.102.
`ACGTGTAC` has an E-score of 0.0688.
`CACCGCCG` has an E-score of -0.304.
With `GCCATTGA` the E-score was 0.111.
`GGCCCCCA` has an E-score of -0.296.
The E-score of `AAGGCCGG` is reported as -0.191.
For `CAACCTTG`, the E-score was 0.01.
For `AATTGTGA`, the E-score was 0.278.
`ACTGCGGG` gave an E-score of -0.144.
`AGTCGGTC` gave an E-score of -0.194.
The E-score of `GGACTCAA` is reported as -0.134.
For `AGACCGGA`, the E-score was -0.277.
`CAATATCG` has an E-score of 0.152.
`TAAGAAAA` has an E-score of 0.189.
`CTTGTGTC` gave an E-score of -0.131.
With `CCGCGACA` the E-score was -0.248.
`CGAGGTAG` gave an E-score of -0.247.

Series 4
Target: PABPC1L2, full length, GST fusion (mouse, UniProt A0ABA7IW68)
Method: RNAcompete
Molecule type: RNA
Medium: in vitro
Tested at: 20 nM
Notes: 7-mer, probes averaged, single round
Baseline: mean of 7-mers
Reading: higher = stronger binding
Residues (chain): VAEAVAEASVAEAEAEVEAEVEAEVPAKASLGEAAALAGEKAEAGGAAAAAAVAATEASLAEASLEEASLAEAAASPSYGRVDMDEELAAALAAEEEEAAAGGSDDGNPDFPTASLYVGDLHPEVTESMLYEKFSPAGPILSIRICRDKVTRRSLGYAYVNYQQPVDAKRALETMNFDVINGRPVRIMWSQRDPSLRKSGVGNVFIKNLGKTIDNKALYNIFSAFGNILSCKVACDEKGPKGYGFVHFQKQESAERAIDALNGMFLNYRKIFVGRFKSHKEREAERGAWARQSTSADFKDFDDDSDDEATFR
`CUCGCUU` gave a 7-mer Z-score of -0.478.
`GAUUUAC` has a 7-mer Z-score of 0.00979.
The 7-mer Z-score of `AAGAGGA` is reported as 0.559.
`AUAUAAU` gave a 7-mer Z-score of -0.00833.
The 7-mer Z-score of `AUCGAAG` is reported as 0.0116.
`CUGUCGA` gave a 7-mer Z-score of -0.329.
`AUCCACC` gave a 7-mer Z-score of -0.177.
With `CCAUCCG` the 7-mer Z-score was -0.427.
`GUUGGAU` has a 7-mer Z-score of -0.0881.
For `CUAACUA`, the 7-mer Z-score was -0.188.
`UUAUGCA` has a 7-mer Z-score of -0.112.
For `GCAGGAG`, the 7-mer Z-score was 0.41.
With `UGUCUAG` the 7-mer Z-score was -0.331.
With `ACGAGUA` the 7-mer Z-score was 0.00979.
The 7-mer Z-score of `GGCUGCU` is reported as -0.101.
The 7-mer Z-score of `GUUGCGA` is reported as -0.103.
The 7-mer Z-score of `UAUUGCA` is reported as -0.173.
For `CCAAAUC`, the 7-mer Z-score was -0.0736.
The 7-mer Z-score of `UGGCGAA` is reported as 0.0732.
`UCGUAAA` gave a 7-mer Z-score of 0.247.
`UAGAAAA` gave a 7-mer Z-score of 4.64.
With `CUCAGGC` the 7-mer Z-score was -0.217.
With `UUAAGAA` the 7-mer Z-score was 0.233.

Series 5
Target: CCNB2, cyclin fold, Cln2 fusion (human)
Method: yeast growth competition, sequencing
Medium: yeast
Notes: weak parent motif
Baseline: not given
Reading: higher = stronger binding
Starting sequence: WEE1 docking peptide (human); HKTFRKLRLFDTP; partner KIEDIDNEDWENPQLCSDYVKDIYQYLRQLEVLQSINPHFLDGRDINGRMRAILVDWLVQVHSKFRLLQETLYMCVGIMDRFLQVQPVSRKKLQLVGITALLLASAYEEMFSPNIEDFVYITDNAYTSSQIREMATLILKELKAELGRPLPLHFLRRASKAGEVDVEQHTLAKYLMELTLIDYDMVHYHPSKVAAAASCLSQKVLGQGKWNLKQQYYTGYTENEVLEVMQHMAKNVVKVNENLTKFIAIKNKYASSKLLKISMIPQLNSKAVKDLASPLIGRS
`L7N`: “normalised enrichment score” 0.814.
For `K6V`, “normalised enrichment score” read 0.0337.
For `F4Q`, “normalised enrichment score” read 0.336.
`L7K`: “normalised enrichment score” 0.759.
`L7D`: “normalised enrichment score” -0.173.
Under “normalised enrichment score”, `L7A` is recorded as 0.189.
For `R5G`, “normalised enrichment score” read 0.564.
`D11S`: “normalised enrichment score” 0.516.
Under “normalised enrichment score”, `T3Q` is recorded as 0.455.
For `H1T`, “normalised enrichment score” read 1.14.
`L9H` — result for “normalised enrichment score”: 0.435.
For `L9V`, “normalised enrichment score” read 0.604.
For `F10N`, “normalised enrichment score” read 0.59.
`T3K` — result for “normalised enrichment score”: 0.0548.
Under “normalised enrichment score”, `F10A` is recorded as 0.765.
Under “normalised enrichment score”, `L7T` is recorded as 0.623.
Under “normalised enrichment score”, `F10W` is recorded as 0.0233.
Under “normalised enrichment score”, `R5E` is recorded as 0.647.
`K2H` — result for “normalised enrichment score”: 0.455.
`L9I`: “normalised enrichment score” 0.296.
`L7I` — result for “normalised enrichment score”: 1.14.
For `R5L`, “normalised enrichment score” read -0.254.
`R5T`: “normalised enrichment score” 0.513.
`F4I` — result for “normalised enrichment score”: 0.938.
For `K6E`, “normalised enrichment score” read 0.376.
